Measured values of several laboratories.
Every numbered part comes from another study and shows a few of its results, in no order.

Study 1
Target: Interferon regulatory factor 3, full length, phosphomimetic (IRF3, Homo sapiens, UniProt Q14653, residues 1-427, S386D/S396D/S398D/S402D/T404D/S405D)
Technique: protein-binding microarray
Molecule type: double-stranded DNA, one strand shown
Sample: in vitro
Tested at: 2540 nM top
Notes: 60-bp whole probe
Together with: salmon DNA 0.4 mg/ml
Baseline: random background probes
Reading: higher = stronger binding
Measurement: fitted relative affinity
Constant ends, left off below: GCCTAGCAC … GTCTTGATTCGCTTGACGCTGCTG
Target sequence (chain): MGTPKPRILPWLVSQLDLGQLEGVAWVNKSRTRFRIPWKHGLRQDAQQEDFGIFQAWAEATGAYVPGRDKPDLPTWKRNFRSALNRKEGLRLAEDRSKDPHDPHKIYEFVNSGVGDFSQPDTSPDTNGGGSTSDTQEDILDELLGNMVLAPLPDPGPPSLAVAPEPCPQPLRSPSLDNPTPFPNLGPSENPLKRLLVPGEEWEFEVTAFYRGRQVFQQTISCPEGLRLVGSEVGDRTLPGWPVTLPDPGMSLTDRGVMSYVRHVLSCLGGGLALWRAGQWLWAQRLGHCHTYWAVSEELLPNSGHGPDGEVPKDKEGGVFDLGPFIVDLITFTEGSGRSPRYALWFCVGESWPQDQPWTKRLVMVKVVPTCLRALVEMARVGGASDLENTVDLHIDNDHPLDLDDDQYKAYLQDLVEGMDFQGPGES
ATATATGTGTATATATAATAGTGCTAG: 0.712 z-score
GACGGTCTCGGTCTCGCGACGTGCTAG: 1.28 z-score
AGCAAAAATGATTGGTTGAAGTGCTAG: -0.794 z-score
TCAAAGCAAAAATGATTACTGTGCTAG: -0.303 z-score
TTAGGTCTCCTACTGCTTTGGTGCTAG: 0.68 z-score
TCATTTCTCTTTCCTTCACTGTGCTAG: 4.24 z-score
CTTTCTCTGCTCTTTTCAACAGTGCTA: 5.85 z-score

Study 2
Target: RING finger protein unkempt homolog, zinc fingers 1-6, GST-SBP tag (UNK, Homo sapiens, UniProt Q9C0B0, residues 30-357)
Technique: RNA Bind-n-Seq
Molecule type: RNA
Sample: in vitro
Tested at: not given
Notes: RNA with constant flanks, human and mouse sites, ends assumed
Baseline: input RNA pool
Reading: higher = stronger binding
Measurement: bound/input enrichment
Constant ends, left off below: GGGAGUUCUACAGUCCGACGAUC … CAACAGAGGAUUGAGCAUCA
Construct (chain): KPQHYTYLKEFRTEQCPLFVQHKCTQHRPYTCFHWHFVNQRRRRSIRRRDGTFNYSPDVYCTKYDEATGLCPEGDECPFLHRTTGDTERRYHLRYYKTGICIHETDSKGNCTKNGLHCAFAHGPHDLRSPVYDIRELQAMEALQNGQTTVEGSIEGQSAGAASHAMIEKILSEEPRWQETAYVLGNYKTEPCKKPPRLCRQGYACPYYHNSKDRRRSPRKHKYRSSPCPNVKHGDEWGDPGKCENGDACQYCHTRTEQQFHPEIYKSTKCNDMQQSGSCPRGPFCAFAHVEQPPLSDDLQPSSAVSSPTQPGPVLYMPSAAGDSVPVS
CUAACUUGCGCAGAAAACAAGAUGAGAUUGGCAUGGCUUUAUUUGUUUUUUUUGUUUUGUUUUGGUUUUUUUUUUUUUUUUGGCUUGACUCAGGAUUUAAAAACUGGAACGGUGAAGGUG: 0.722 ratio
GGCUGUGGUAAGCGGGACCAUGCCUCCAACAUCUAUAAAGUGGAGGGUGGCUGUAUCACUAAGCUGGAGACCUUCAUUCAGGAGCACCUGCGGGUCAUUGGGGCGGUGGGCAUUGGCAUC: 0.227 ratio
ACCAAAGGCCUGGAUGCUUCCAGCAAGAGAAACACGGACAAAGCUGUGUCUGUUGAGGCUGCGGAGAGAGACUGGGAAGAGAAGCGGGCAGCCCUGACCCAGUACAGCGCCAAGGACAUC: 0.171 ratio
GAGAAUGCCGUGGAGCAUGAUUGUGGGCGCACUGUGUACUCUCGGGUGGCCCGGGUGUGCAAGAAUGAUGUAGGUGGCCGUUUCCUGCUGGAGGACACGUGGACCACAUUCAUGAAGGCC: 0.0778 ratio
AGCAAUCCAGAUCUCUAUGGUCCCUUUUGGAUAUGUGCCACGUUGGUCUUUGCCAUAGCAAUUAGUGGGAACCUUUCUAACUUCCUAAUCCAUCUGGGAGAGAAGACAUACCAUUAUGUG: 0.117 ratio
CCUGACACUCUGGACCCAGCGCUCAUGAGACCGGGGAGGCUGGACAGGAAGAUUGAGUUCAGCUUACCUGACUUAGAGGGUCGAACGCACAUCUUUAAGAUUCACGCUCGCUCAAUGAGU: 0.0571 ratio
GGCAGCGAACUGGUUUGUGGCCUGUUUGAUUCCUGUCAGAGGUUUGCUGACCCAAGACAGUAUCGAAAAUGCAUAUUAAGUCAAUUAUUCUAGAGGGAUUCAAGUCCUAUGCUCAGAGGA: 0.751 ratio
UCUCAGCUAAUGGUAUAAAUGGAUGGUCAGAAUUGAGAUGAAGGGUUUCUAAGAGAGAUAUACAUAAGAAUUGAUCCUUUAAUCUCUGCUGAAGUGAGGGAGUCUCUGGUUUCUAGGGCA: 0.701 ratio

Study 3
Target: Ras GTPase-activating protein-binding protein 1, full length (G3BP1, Homo sapiens, UniProt Q13283)
Sequence of UniProt Q13283 (whole entry, looked up): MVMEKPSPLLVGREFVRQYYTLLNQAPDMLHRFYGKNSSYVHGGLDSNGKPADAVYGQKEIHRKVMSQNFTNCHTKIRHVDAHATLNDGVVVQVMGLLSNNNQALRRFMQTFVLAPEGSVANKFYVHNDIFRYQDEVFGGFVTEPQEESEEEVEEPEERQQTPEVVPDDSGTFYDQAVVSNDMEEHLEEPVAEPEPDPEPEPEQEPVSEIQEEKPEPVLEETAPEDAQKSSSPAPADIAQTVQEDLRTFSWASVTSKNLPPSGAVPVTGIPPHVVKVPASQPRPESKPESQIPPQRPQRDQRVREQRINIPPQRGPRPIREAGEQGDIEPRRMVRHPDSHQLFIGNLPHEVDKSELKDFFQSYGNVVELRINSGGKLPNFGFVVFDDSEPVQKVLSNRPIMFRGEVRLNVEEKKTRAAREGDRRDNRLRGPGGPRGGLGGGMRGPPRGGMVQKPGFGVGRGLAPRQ
Technique: RNA Bind-n-Seq
Molecule type: RNA
Sample: in vitro
Tested at: 200 nM
Notes: whole 134-nt RNA, ends assumed
Together with: 150 mM KCl
Baseline: input library
Reading: higher = stronger binding
Measurement: log2 enrichment
Constant ends, left off below: GGGAGUUCUACAGUCCGACGAUC … UGGAAUUCUCGGGUGUCAAGG
UAACUUUAGAGGAGGAUCUGAUGGGUAUGGCAGUGGACGUGGAUUUGGGGAUGGCUAUAAUGGGUAUGGAGGAGGACCUGGAGGUGGCAA: 0.41
GCAGGAAGUAAAAACAAAUGGAAAUGCUUCGGAUAGUGGCAGGGGUGGGGGUUGCUAAGGAAAGGGUGGGAAGGGAGUGGGUAAAGAGUU: 0.814
GUCCUGUGCUACACAUCGUAUGUACCGAAUCGGGGAGGGGAAAAAAAGGGGUUUGGGGAAAGUAUUAUGUUACGCCGUUCGGAUCUGCAC: 0.312
UAACUUUAGAGGAGGAUCUGAUGGAUAUGGCAGUGGACGUGGAUUUGGGGAUGGCUAUAAUGGGUAUGGAGGAGGCCCUGGAGGUGGCAA: 0.35
UCAAGUCCUGUGCUACACAUCGUAUGUACCGAAUCGGUGGUUUUUGGUUUUUGGAAAGUAUUAUGUUACGCCGUUCGGAUCUGCACUUCC: -0.802

Further values, each from its own experiment
PhoQ, residues 284 288 289 292 302 303 TSTLRA
fold induction (PhoP, residues 12 14 15 18 19 NHFIF (Escherichia coli, UniProt P23836); Sort-seq, refers to: YFP reporter; E. coli; PhoQ-PhoP variant library, together with: 10 µM Mg2+; baseline: high Mg2+ state, higher = stronger signaling): 7.68

Some of these lines once more (study 2):
ACCAAAGGCCUGGAUGCUUCCAGCAAGAGAAACACGGACAAAGCUGUGUCUGUUGAGGCUGCGGAGAGAGACUGGGAAGAGAAGCGGGCAGCCCUGACCCAGUACAGCGCCAAGGACAUC: 0.171 ratio
GAGAAUGCCGUGGAGCAUGAUUGUGGGCGCACUGUGUACUCUCGGGUGGCCCGGGUGUGCAAGAAUGAUGUAGGUGGCCGUUUCCUGCUGGAGGACACGUGGACCACAUUCAUGAAGGCC: 0.0778 ratio
